Measured values from different studies.
Each numbered part is a random draw from the data of one study; scales do not carry over between parts.

Sample 1 — method: universal PBM; form: double-stranded DNA, one strand shown; sample: in vitro; concentration: 600 nM; reading: higher = stronger binding
Target: Sal-like protein 4, full length isoform A (SALL4, Homo sapiens, UniProt Q9UJQ4, residues 1-1053)
Chain of UniProt Q9UJQ4 (whole entry, looked up): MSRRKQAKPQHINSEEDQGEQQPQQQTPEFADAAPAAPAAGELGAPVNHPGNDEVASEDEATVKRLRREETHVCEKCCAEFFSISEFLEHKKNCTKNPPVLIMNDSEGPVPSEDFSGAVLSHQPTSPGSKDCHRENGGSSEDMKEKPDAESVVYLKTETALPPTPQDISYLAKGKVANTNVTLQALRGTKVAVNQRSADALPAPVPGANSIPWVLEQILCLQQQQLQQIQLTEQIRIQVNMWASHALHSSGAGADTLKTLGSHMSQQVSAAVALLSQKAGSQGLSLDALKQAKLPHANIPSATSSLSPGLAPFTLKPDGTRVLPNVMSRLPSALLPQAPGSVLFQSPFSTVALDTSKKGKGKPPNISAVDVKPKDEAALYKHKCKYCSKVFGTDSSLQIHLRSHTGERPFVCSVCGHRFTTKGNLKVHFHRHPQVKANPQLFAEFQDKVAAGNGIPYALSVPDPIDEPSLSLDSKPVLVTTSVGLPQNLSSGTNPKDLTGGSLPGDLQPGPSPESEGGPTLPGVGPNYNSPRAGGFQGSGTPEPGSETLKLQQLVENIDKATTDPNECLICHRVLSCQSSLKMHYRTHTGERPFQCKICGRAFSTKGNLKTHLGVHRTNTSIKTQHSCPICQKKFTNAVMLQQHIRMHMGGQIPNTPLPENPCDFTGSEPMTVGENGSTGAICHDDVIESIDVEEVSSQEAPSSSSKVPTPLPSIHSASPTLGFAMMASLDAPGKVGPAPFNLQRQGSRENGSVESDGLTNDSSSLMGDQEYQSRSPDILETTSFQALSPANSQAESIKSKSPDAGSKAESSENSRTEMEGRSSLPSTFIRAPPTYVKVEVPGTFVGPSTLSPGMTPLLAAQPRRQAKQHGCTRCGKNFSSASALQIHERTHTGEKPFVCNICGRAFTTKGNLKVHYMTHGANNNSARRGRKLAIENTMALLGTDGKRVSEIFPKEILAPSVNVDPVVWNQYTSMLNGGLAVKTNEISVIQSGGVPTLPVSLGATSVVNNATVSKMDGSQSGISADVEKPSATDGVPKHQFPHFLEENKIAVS
Notes: 8-mer, flanks averaged, mean of replicates
| Sequence | E-score |
| --- | --- |
| CTGTATTA | 0.277 |
| GCTTATAA | 0.267 |
| CTCTAGAC | -0.00593 |
| CGCATTAG | -0.135 |
| GAAGACCA | -0.211 |
| AGGGGGCA | -0.312 |
| ATAGCTTG | 0.129 |

Sample 2 — method: protein-binding microarray; form: double-stranded DNA, one strand shown; sample: in vitro; concentration: 250 nM; notes: 60-bp whole probe; together with: salmon DNA 0.4 mg/ml; reference: random background probes; reading: higher = stronger binding
Target: Interferon regulatory factor 7, full length, phosphomimetic (IRF7, Homo sapiens, UniProt Q92985, residues 1-503, S101K/S471D/S472D/S475D/S476D/S477D/S483D/S484D/S487D)
All sequences stand within: GCCTAGCAC … GTGCTAGGTCTTGATTCGCTTGACGCTGCTG
Target sequence (chain): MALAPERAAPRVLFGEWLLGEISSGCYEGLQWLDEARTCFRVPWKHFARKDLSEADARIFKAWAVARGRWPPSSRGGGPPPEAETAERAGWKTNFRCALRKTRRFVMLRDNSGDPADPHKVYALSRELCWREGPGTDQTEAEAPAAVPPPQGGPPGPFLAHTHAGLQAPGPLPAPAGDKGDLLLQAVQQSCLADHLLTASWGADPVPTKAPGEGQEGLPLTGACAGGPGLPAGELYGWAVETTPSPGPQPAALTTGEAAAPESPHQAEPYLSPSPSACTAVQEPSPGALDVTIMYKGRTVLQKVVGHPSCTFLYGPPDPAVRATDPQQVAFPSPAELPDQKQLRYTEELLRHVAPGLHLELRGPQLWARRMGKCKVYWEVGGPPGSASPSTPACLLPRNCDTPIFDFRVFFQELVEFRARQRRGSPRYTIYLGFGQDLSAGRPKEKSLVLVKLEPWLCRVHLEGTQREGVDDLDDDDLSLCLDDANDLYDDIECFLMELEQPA
| Sequence | log fluorescence |
| --- | --- |
| TTAGATTTCAGTTTCGACTA | 4.97 z-score |
| TAAATTTTGATGGAGAGTGC | -0.188 z-score |
| GAAAATTAGTGTTTTGCCCT | -0.0108 z-score |
| ACTTGTATTTGTCCCTATTT | 2.05 z-score |
| ATCTTTTTCCTAATTGAACC | 2.59 z-score |

Sample 3 — method: protein binding microarray; form: double-stranded DNA, one strand shown; sample: in vitro; concentration: not given; reference: not given; reading: higher = stronger binding
Target: Histone acetyltransferase KAT6A, both winged helices, GST fusion (KAT6A, Homo sapiens, UniProt Q92794, residues 1-181)
Notes: 8-mer, flanks averaged, mean of 2 arrays, mostly near background
Residues (chain): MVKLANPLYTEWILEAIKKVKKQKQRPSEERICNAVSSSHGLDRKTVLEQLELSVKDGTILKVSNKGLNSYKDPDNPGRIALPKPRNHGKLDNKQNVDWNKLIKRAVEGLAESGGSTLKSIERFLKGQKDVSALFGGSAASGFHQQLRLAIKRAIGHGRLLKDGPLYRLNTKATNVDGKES
| Sequence | E-score |
| --- | --- |
| CGAGACTC | -0.0342 |
| AGAAAAGG | -0.343 |
| CCGGTAGC | 0.173 |
| TAGTGGAA | -0.0195 |
| GCCCCAAA | 0.0373 |
| AAATATGT | 0.0352 |
| AATGGGTC | -0.128 |
| AATCTAGT | -0.125 |
| ACCAACGC | 0.108 |
| CCGGATAG | 0.144 |
| ACGTGACG | 0.131 |

Mixed results
| Substance | target | assay | test system | setting | how to read | quantity | result |
| --- | --- | --- | --- | --- | --- | --- | --- |
| PhoQ, residues 284 288 289 292 302 303 SLCLSL | PhoP, residues 12 14 15 18 19 SYFRT (Escherichia coli, UniProt P23836) | Sort-seq, item: YFP reporter | E. coli | PhoQ-PhoP variant library, together with: 10 µM Mg2+ | reference: high Mg2+ state, higher = stronger signaling | fold induction | 17 |
